# Results from different studies.
# A part holds a random share of what one study measured. Substitutions count along the parent as printed.
# Chain of UniProt Q9ZSY8 (whole entry, looked up): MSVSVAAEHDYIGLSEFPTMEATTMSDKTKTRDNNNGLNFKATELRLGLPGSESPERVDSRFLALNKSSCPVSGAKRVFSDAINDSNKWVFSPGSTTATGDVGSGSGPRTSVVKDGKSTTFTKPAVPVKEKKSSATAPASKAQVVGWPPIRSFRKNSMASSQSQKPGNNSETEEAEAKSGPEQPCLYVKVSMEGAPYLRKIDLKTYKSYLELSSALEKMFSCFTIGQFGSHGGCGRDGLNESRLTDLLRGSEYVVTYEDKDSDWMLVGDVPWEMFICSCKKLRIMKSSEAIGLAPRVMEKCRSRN
# Chain of UniProt Q9C5X0 (whole entry, looked up): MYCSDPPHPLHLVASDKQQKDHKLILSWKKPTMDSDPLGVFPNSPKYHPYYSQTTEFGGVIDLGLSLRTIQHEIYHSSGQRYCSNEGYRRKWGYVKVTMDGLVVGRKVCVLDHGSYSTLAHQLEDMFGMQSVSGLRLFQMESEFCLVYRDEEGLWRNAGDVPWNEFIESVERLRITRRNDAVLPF
# Chain of UniProt Q9M1R4 (whole entry, looked up): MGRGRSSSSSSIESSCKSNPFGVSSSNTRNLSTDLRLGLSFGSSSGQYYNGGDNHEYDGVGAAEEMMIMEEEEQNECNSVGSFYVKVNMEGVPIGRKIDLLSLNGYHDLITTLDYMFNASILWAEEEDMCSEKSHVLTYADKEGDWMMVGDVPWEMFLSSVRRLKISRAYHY
# Chain of UniProt P93024 (whole entry, looked up): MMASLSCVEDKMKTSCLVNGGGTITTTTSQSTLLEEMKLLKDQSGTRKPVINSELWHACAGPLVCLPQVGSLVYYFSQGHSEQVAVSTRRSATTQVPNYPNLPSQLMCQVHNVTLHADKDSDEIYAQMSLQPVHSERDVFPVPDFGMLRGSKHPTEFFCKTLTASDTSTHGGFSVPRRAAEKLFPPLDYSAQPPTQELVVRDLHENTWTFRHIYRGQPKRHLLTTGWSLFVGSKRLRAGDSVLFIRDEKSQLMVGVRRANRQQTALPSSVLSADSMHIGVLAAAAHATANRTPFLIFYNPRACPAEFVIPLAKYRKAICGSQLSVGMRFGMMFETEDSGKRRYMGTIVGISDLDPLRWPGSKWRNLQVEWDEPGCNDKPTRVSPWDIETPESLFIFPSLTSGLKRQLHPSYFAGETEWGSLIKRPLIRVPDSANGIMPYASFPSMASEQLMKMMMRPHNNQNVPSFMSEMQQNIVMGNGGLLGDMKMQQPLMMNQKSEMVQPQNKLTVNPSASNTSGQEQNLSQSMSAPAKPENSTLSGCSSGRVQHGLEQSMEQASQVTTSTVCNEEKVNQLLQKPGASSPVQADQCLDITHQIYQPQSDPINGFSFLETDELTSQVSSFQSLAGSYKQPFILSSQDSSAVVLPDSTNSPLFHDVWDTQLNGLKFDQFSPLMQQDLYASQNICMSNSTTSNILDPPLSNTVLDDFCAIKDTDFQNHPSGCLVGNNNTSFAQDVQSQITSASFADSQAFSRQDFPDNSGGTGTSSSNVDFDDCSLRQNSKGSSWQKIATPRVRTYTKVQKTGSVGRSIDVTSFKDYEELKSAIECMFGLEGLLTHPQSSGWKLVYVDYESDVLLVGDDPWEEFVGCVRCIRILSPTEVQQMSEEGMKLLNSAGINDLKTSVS
# Chain of UniProt Q9FKM7 (whole entry, looked up): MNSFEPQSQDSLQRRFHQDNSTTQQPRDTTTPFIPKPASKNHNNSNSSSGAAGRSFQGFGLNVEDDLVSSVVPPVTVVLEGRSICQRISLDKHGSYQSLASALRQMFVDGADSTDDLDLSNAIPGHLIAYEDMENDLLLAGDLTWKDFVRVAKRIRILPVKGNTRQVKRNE
# Chain of UniProt Q9ZTX8 (whole entry, looked up): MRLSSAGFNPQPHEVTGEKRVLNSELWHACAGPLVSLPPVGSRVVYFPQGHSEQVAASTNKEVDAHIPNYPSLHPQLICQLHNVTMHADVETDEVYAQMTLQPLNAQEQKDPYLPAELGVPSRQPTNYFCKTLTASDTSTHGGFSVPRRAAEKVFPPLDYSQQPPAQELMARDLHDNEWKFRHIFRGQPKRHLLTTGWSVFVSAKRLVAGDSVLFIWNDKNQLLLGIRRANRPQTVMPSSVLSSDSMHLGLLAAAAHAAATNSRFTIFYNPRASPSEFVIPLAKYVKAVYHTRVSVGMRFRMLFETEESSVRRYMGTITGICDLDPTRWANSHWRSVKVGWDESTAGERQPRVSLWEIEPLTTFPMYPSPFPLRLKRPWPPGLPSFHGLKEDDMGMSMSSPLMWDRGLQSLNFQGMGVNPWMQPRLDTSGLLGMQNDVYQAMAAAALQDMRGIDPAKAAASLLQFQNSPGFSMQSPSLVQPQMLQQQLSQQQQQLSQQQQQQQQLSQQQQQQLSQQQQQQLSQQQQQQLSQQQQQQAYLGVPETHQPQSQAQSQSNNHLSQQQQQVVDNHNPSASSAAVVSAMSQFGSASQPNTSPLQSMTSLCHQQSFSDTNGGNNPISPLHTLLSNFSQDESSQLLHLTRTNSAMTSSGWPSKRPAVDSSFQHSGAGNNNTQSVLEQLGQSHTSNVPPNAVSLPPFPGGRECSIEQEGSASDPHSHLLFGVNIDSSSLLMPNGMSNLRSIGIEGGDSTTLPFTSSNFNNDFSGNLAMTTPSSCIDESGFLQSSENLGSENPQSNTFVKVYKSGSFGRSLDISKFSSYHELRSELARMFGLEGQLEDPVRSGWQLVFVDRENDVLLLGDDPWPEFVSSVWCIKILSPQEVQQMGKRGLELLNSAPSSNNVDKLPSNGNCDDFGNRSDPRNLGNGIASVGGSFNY
# Chain of UniProt P62837 (whole entry, looked up): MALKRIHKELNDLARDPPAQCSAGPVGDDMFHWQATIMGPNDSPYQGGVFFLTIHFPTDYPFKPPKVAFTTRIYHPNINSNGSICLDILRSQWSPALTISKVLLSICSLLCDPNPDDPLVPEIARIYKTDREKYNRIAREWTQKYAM

# Block 1
# Sequence: B1 (IAA26)
# Technique: two-hybrid
# Reading: higher = firmer interaction
# B1: IAA26 (Arabidopsis thaliana, UniProt Q8LAL2); chain MEGCPRNREIGPKLLDLIPQGRKWYQEDKNNTDQEKKLELRLGPPGGDEEDHSAIKKKNTEIRNIKKETEDKSFHCFNGNHFSPSNKTTSVPHISQKRTAPGPVVGWPPVRSFRKNLASTSSSKLGNESSHGGQINKSDDGEKQVETKKEGMFVKINMDGVPIGRKVDLNAYNSYEQLSFVVDKLFRGLLAAQRDISDGQGEEKPIIGLLDGKGEFTLTYEDNEGDKMLVGDVPWQMFVSSVKRLRVIKSSEISSALTFGCSKQEKMMH
partner,setting,how to read,positive tests
"ARF6 790-935 (Arabidopsis thaliana, UniProt Q9ZTX8)",,baseline: out of 2 tests,1
"ARF5 788-902 (Arabidopsis thaliana, UniProt P93024)",,baseline: out of 4 tests,1
"IAA34 (Arabidopsis thaliana, UniProt Q9C5X0)",,baseline: out of 4 tests,2
"IAA27 (Arabidopsis thaliana, UniProt Q9ZSY8)",,baseline: out of 2 tests,0
"IAA30 (Arabidopsis thaliana, UniProt Q9M1R4)",weak activation fusion,baseline: out of 3 tests,2
"IAA33 (Arabidopsis thaliana, UniProt Q9FKM7)",,baseline: out of 4 tests,1

# Block 2
# Target: Prothrombin, mature alpha-thrombin (F2, Homo sapiens, UniProt P00734)
# Technique: aptamer microarray, sandwich
# Form: DNA with 2'F-ANA
# Medium: in vitro
# Concentration: 200 nM
# Setting: whole 15-mer aptamer, many near background
# Added: Cy3 exosite-II aptamer, 400 nM
# Reading: higher = stronger binding
# Strand: GGTTGGTGTGGTTGG
Modification,mean fluorescence intensity
2'F-ANA at 1 3 4 7 8 11 12 14,108 a.u.
2'F-ANA at 1 2 4 6 7 13,106 a.u.
2'F-ANA at 1 2 3 4 6 8 11 12 14 15,120 a.u.
2'F-ANA at 1 2 4 6 9 10 12 13 14 15,44.8 a.u.
2'F-ANA at 1 3 4 6 8 11 12 14,116 a.u.
2'F-ANA at 1 2 5 6 7 8 10 13,46.1 a.u.
2'F-ANA at 1 2 8 9 10 13 14 15,47 a.u.
2'F-ANA at 2 3 6 7 9 11 12 14 15,317 a.u.

# Single results of other studies
# Medium: yeast
# Baseline: not given
# CCNB3: CCNB3, cyclin fold, Cln2 fusion (human)
# P1: viral docking peptide; PTARRRLLHDLDT; partner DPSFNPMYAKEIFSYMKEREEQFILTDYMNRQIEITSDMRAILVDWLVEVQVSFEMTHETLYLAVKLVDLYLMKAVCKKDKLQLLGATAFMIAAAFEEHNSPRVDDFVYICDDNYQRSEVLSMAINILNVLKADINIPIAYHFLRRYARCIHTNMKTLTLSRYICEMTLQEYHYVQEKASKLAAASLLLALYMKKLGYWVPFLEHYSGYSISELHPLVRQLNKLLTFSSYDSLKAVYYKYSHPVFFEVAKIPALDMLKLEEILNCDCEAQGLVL
Molecule,target,test,setting,how to read,quantity,value
P1 H9A,CCNB3,"yeast growth competition, sequencing",weak parent motif,higher = stronger binding,normalised enrichment score,0.224
ISNDSETLEECMVCSDMKRDTLFGPCGHIATCSLCSPRVKKCLICKEQVQSRTKIE (MIB1 RING domain (UniProt Q86YT6)),UBE2D2 UBC core domain (UniProt P62837),yeast two-hybrid,mostly zero background,higher = stronger interaction,lacZ reporter activity,0
P1 D12A,CCNB3,"yeast growth competition, sequencing",weak parent motif,higher = stronger binding,normalised enrichment score,-0.429

# For quick reference, copied from above (block 2):
Modification,mean fluorescence intensity
2'F-ANA at 1 3 4 6 8 11 12 14,116 a.u.
2'F-ANA at 1 2 5 6 7 8 10 13,46.1 a.u.
